Experimental data gathered from unrelated publications.
Every numbered part comes from another study and shows a few of its results, in no order.

Sample 1 — method: protein-binding microarray; molecule type: double-stranded DNA, one strand shown; medium: in vitro; concentration: not given; direction: higher = stronger binding; quantity: E-score
Target: Max dimerization protein 1, bHLH-zipper, MAX partner unstated (MXD1, Homo sapiens, UniProt Q05195, residues 56-136)
Setting: k-mer, scored over probes, only values ≥0.25
Target sequence (chain): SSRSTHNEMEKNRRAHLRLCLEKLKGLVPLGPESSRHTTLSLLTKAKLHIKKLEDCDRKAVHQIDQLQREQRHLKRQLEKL
Oligonucleotide = CCATGCCC; value = 0.351
Oligonucleotide = AACACGCG; value = 0.428
Oligonucleotide = AGCACACG; value = 0.283

Sample 2 — method: protein-binding microarray; molecule type: double-stranded DNA, one strand shown; medium: in vitro; concentration: 940 nM top; setting: 60-bp whole probe; added: salmon DNA 0.4 mg/ml; reference: random background probes; direction: higher = stronger binding; quantity: fitted relative affinity
Target: Interferon regulatory factor 5, full length, phosphomimetic (IRF5, Homo sapiens, UniProt Q13568-2, residues 1-514, S451D/S453D/S456D/S462D)
Oligonucleotide = GCCTAGCACGACGGTTTCCTTCTCCAGACGTGCTAGGTCTTGATTCGCTTGACGCTGCTG; value = 1.61 z-score
Oligonucleotide = GCCTAGCACTCATTTCCATCTCTCAAACTGTGCTAGGTCTTGATTCGCTTGACGCTGCTG; value = 1.69 z-score
Oligonucleotide = GCCTAGCACTCACTCGTGTTTTTCTCACTGTGCTAGGTCTTGATTCGCTTGACGCTGCTG; value = 0.763 z-score

Sample 3 — method: RNA Bind-n-Seq; molecule type: RNA; medium: in vitro; concentration: not given; reference: input RNA pool; direction: higher = stronger binding; quantity: bound/input enrichment
Target: RING finger protein unkempt homolog, zinc fingers 1-6, GST-SBP tag (UNK, Homo sapiens, UniProt Q9C0B0, residues 30-357)
Chain of UniProt Q9C0B0 (30-357, looked up): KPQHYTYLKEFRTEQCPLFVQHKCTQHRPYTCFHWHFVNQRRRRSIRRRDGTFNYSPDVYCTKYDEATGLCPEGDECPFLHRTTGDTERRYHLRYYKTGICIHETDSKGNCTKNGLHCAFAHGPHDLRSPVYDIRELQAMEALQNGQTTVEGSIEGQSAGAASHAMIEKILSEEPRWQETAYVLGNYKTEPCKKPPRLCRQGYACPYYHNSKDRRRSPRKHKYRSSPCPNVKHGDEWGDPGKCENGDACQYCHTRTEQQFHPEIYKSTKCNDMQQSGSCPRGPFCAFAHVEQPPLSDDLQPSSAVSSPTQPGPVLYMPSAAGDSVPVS
Setting: RNA with constant flanks, human-mouse chimeric sites, ends assumed
Oligonucleotide = GGGAGUUCUACAGUCCGACGAUCUGUGAACUGAAAGGUGUGAUCUAAAAACAAGAUGACUUUUCCUGGCACAUAUUCCAAAGCAAAGACUUUGUUACCUGCUGCUUAUUGUCUAAUUUACAGGGAUAUUUAAUUUUGUCAGGUCAACAGAGGAUUGAGCAUCA; value = 0.114 ratio
Oligonucleotide = GGGAGUUCUACAGUCCGACGAUCAAAAUAGACUAUGGCGAGUACAUGGAUAAAAACAAUGUGAGGCGGCAAGCAACAACAAUCAUAGCUGAUAAUAUUAUAUUUCUGAGUGACCAGACAAAAGAAAAGGCAUAGAACGGAUGACAACAGAGGAUUGAGCAUCA; value = 8.01 ratio
Oligonucleotide = GGGAGUUCUACAGUCCGACGAUCAGAGCCCAGGAUGUUGAUGCUACAAACCCAAAUUACGAAAUUAUGUGUAUGAUCAGAGACUUCAGAGGGAGCUUGGAUUACAGACCCUUAACAACAGCAGAUCCUAUUGAUGAACAUAGGCAACAGAGGAUUGAGCAUCA; value = 0.341 ratio

Further values, each from its own experiment
Molecule = PhoQ, residues 284 288 289 292 302 303 SSCCRF; target = PhoP, residues 12 14 15 18 19 IQSYL (Escherichia coli, UniProt P23836); test = Sort-seq, item: YFP reporter; system = E. coli; setting = PhoQ-PhoP variant library, added: 10 µM Mg2+; how to read = reference: high Mg2+ state, higher = stronger signaling; quantity = fold induction; value = 12.5

Some of these lines once more (sample 1):
Oligonucleotide = AACACGCG; value = 0.428
